Experimental data from different studies.
Values joined by “and” are separate records of one study, mostly repeats; a detail may differ.

| Compound | target or system | test | system | setting | scale | endpoint | value |
| --- | --- | --- | --- | --- | --- | --- | --- |
| OCCCN1CC[C@@H]2C[C@H]1c1cc(-c3ccc(C(F)(F)F)cc3)ccc12 |  |  | plasma | ip, concentration not given |  | Cmax | 508 ng/mL |
| COCC1CN(C2CCN(c3cc(OC)c(Nc4ncc(Br)c(Nc5ccc6c(c5P(C)(C)=O)OCCO6)n4)cc3C)CC2)C1 |  |  | EGFR-mutant NSCLC patients, plasma | oral, 240 mg single dose, geometric mean |  | Cmax | 1630 ng/mL |
| CC1(C)CC[C@]2(NC(=O)C(C)(F)F)CC[C@]3(C)[C@H](C(=O)C=C4[C@@]5(C)C=C(C#N)C(=O)C(C)(C)[C@@H]5CC[C@]43C)[C@@H]2C1 |  |  | human, plasma | oral, dose not given, geometric least-squares mean, with: gemfibrozil |  | Cmax | 29.7 ng/mL |
| CC(C)C[C@H](NC(=O)[C@H](CCCN)NC(=O)CNC(=O)[C@@H](NC(=O)[C@H](C)NC(=O)[C@@H]1CSCSC[C@H](NC(=O)CC[C@H](N)C(=O)O)C(=O)N[C@@H](CC(N)=O)C(=O)N[C@@H]([C@@H](C)O)C(=O)N[C@@H](C)C(=O)N[C@@H]([C@@H](C)O)C(=O)N1)[C@@H](C)O)C(=O)N[C@@H](C)C(=O)N[C@@H](CCC(=O)O)C(=O)N[C@@](C)(Cc1ccccc1)C(=O)N[C@@H](CC(C)C)C(=O)N[C@H](C(=O)N[C@@H](CCCNC(=N)N)C(=O)N[C@@H](CO)C(=O)N[C@@H](CO)C(=O)N[C@@H](CC(N)=O)C(=O)N(C)[C@@H](CC(N)=O)C(=O)N[C@@H](Cc1ccccc1)C(=O)NCC(=O)N1CCC[C@H]1C(=O)N[C@@H](CCCCNC(=O)CC[C@H](NC(=O)CC[C@H](NC(=O)CCCCCCCCCCCCCCCCCCC(=O)O)C(=O)O)C(=O)O)C(=O)N[C@@H](CC(C)C)C(=O)N1CCC[C@H]1C(=O)N1CCC[C@H]1C(=O)N[C@H](C(=O)N[C@@H](CCC(=O)O)C(=O)N[C@H](C(=O)NCC(=O)N[C@@H](CO)C(=O)N[C@@H](CC(N)=O)C(=O)N[C@H](C(=O)N[C@@H](Cc1ccc(O)cc1)C(N)=O)[C@@H](C)O)C(C)C)[C@@H](C)O)C(C)C |  |  | healthy humans, plasma | subcutaneous, dose not given |  | Cmax | 110 ng/mL |
| C=C[C@]1(C)C[C@@H](OC(=O)CSc2ccc(NC(=O)c3ccco3)cc2)[C@]2(C)[C@H](C)CC[C@]3(CCC(=O)[C@H]32)[C@@H](C)[C@@H]1O |  |  | M. gallisepticum-infected chickens, plasma | intramuscular, 80 mg/kg single dose |  | Cmax | 9530 ng/mL |
| COC1CN([C@H]2CC[C@H]([C@@]3(C)Oc4c(Cl)cc(C(=O)NCc5c(SC)cc(C)[nH]c5=O)c(C)c4O3)CC2)C1 |  |  | female CB17 SCID mice, KARPAS-422 xenograft, plasma | 25 mg/kg, day 1 |  | Cmax | 1090 ng/mL |
| C=C(NC(=O)c1csc(-c2nc3c(cc2O)-c2nc(cs2)C(=O)NC(C(C)O)C(=O)NC(=C(C)OC)c2nc(cs2)C(=O)NC2c4nc(cs4)C(=O)NC(COC(=O)c4c5c6c(cccc6n4O)COC(=O)C(OC4CC(C)(O)C(N(C)C)C(C)O4)C2OC5)c2nc-3cs2)n1)C(N)=O (stereo not shown) |  |  | ICR mice, Streptococcus pneumoniae ATCC 49169 infected, immunocompromised, blood | intravenous, 8 mg/kg/day three times daily |  | Cmax | 341 ng/mL |
| C(=N\Nc1nc(Nc2ccccc2)nc(N2CCOCC2)n1)/c1c[nH]c2ccccc12 | Trypanosoma cruzi | reporter mRNA translation, inhibitor, refers to: Renilla luciferase mRNA | cell-free extract | concentration not given, test 2 | relative to: positive over negative control | translation activity | 114% and 91.6% |
| N=C(N)NCCC[C@@H]1NC(=O)[C@H](CO)NC(=O)[C@@H](NC(=O)[C@H](CO)NC(=O)[C@H](CO)NC(=O)[C@H](Cc2c[nH]c3ccccc23)NC(=O)CNC(=O)[C@H](CO)NC(=O)[C@@H](N)Cc2c[nH]c3ccccc23)CSSC[C@@H](C(=O)NCC(=O)O)NC(=O)[C@H](CO)NC1=O |  |  | patients, plasma | intravenous, 5 mg/kg, thrice weekly, median |  | Cmax | 2160 ng/mL |
| CNCc1ccc(-c2cc(=O)c3ccc4[nH]c(C(F)(F)F)nc4c3o2)cc1 |  |  | ICR mice, brain | intravenous, 2 mg/kg |  | Cmax | 164 ng/g |
| CCCCCCCOc1ccc(CC[C@](N)(CO)COP(=O)(O)O)cc1C(F)(F)F |  |  | healthy human males, plasma | 0.75 mg, day 21 |  | Cmax | 9.22 ng/mL |
| Br.CCCCCCCCCn1c2c(c(=N)c3c1CCC3)CCCC2 | Trypanosoma cruzi | reporter mRNA translation, inhibitor, refers to: capped polyadenylated Renilla luciferase mRNA | cell-free extract | concentration not given | relative to: positive over negative control | translation activity | 36.5% and 34.1% and 30.7% and 28.8% |
| COc1cc2nccc(Oc3ccc(NC(=O)C4(C(=O)Nc5ccc(F)cc5)CC4)cc3)c2cc1OC |  |  | male patients, monotherapy, plasma | oral, 60 mg once daily |  | Cmax | 468 ng/mL |

A few entries again:
| Compound | target or system | test | system | setting | scale | endpoint | value |
| --- | --- | --- | --- | --- | --- | --- | --- |
| N=C(N)NCCC[C@@H]1NC(=O)[C@H](CO)NC(=O)[C@@H](NC(=O)[C@H](CO)NC(=O)[C@H](CO)NC(=O)[C@H](Cc2c[nH]c3ccccc23)NC(=O)CNC(=O)[C@H](CO)NC(=O)[C@@H](N)Cc2c[nH]c3ccccc23)CSSC[C@@H](C(=O)NCC(=O)O)NC(=O)[C@H](CO)NC1=O |  |  | patients, plasma | intravenous, 5 mg/kg, thrice weekly, median |  | Cmax | 2160 ng/mL |
